Published values pooled from the literature.
Each numbered part is a random draw from the data of one study; scales do not carry over between parts. Several values in a cell are separate wells, animals, samples, runs or records. pIC50: −log10 of the molar value.

Set 1 — read-out: enzyme activity; mode: inhibitor; tested at: 77 µM; reference: untreated
Target: DNA polymerase theta, ATPase domain (POLQ, Homo sapiens, UniProt O75417)
Chain of UniProt O75417 (whole entry, unmodified, looked up): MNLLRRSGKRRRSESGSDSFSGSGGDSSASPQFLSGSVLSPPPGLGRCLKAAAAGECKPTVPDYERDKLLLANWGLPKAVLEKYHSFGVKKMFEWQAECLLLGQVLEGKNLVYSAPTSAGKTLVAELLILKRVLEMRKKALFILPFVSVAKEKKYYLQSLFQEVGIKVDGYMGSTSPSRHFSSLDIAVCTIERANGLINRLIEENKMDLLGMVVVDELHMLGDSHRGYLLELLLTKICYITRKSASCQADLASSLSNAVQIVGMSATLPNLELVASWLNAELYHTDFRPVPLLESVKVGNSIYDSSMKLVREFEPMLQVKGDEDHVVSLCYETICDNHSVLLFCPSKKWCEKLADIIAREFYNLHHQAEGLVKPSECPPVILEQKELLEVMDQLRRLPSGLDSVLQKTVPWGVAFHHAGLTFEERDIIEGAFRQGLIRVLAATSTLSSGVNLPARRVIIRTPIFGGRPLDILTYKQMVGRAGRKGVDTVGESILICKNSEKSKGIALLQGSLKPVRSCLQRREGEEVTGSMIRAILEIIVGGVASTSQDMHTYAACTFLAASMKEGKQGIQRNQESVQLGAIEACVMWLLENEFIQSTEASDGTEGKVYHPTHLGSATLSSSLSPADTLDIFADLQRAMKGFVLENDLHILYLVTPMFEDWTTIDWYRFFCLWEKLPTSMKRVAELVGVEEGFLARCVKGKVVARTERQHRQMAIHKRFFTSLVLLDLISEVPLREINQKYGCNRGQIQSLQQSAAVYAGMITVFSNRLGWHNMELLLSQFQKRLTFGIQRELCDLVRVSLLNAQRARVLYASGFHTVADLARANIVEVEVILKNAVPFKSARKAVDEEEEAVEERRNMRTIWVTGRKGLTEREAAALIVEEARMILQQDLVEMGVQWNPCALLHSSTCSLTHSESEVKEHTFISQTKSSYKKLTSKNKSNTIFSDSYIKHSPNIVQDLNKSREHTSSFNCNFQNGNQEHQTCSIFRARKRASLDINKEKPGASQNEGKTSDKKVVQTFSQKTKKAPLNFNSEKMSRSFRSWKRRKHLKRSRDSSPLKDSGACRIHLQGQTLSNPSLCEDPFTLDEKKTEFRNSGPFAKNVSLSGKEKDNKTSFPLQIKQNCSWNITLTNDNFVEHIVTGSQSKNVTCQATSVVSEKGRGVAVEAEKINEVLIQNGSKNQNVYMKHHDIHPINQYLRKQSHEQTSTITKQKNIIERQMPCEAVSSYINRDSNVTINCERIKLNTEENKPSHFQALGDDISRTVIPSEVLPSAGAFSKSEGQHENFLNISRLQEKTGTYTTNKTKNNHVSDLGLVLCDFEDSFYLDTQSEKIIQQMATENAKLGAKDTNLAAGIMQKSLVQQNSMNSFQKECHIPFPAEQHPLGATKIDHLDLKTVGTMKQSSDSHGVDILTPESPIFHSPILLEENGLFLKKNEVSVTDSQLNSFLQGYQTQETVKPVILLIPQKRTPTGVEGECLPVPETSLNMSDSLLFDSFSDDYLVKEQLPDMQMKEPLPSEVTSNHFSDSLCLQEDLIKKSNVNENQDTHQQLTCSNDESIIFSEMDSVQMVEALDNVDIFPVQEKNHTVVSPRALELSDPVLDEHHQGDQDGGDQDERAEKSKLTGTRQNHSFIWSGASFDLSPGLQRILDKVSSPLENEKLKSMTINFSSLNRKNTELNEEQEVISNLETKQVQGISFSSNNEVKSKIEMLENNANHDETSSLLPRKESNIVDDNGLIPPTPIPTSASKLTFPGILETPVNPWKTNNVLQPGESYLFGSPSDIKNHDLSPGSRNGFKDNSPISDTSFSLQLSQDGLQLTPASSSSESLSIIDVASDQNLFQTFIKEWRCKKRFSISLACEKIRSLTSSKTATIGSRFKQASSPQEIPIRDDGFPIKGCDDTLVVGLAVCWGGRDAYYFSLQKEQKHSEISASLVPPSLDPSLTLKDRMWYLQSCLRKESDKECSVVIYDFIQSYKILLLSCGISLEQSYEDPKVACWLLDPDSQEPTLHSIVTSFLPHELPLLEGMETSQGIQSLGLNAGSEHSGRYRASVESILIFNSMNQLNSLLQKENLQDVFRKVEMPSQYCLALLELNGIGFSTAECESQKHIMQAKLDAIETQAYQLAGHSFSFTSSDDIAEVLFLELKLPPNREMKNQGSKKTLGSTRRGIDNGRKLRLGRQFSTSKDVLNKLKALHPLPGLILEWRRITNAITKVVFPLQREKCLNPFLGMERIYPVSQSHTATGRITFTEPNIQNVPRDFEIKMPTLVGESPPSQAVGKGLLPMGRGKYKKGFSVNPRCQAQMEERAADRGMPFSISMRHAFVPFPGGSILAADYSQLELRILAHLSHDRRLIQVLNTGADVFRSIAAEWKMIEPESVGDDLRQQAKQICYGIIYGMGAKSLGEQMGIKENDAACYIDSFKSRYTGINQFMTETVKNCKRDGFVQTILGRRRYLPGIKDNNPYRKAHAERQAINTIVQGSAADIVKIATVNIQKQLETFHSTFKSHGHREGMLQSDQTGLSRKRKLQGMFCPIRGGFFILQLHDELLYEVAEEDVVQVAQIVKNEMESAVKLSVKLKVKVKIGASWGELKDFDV
`COc1cc2nccc(Oc3ccc(NC(=O)NC4CC4)c(Cl)c3)c2cc1C(N)=O` has a remaining activity of 76.6%.
`CCCn1cnc2c1c(=O)n(CCCCC(C)=O)c(=O)n2C` has a remaining activity of 102%.
`c1cc(CN2CCCCC2)cc(OCCCNc2nc3ccccc3s2)c1` gave a remaining activity of 103%.
`O=C(CCCCCN1CCN(c2ccccc2-c2ccccc2)CC1)NC1CCCc2ccccc21` (centres unmarked) has a remaining activity of 101%.
With `Cc1c(OCC(F)(F)F)ccnc1C[S@@+]([O-])c1nc2ccccc2[nH]1` the remaining activity was 103%.
For `COc1cc2nc(N3CCN(C(=O)c4ccco4)CC3)nc(N)c2cc1OC`, the remaining activity was 102%.
For `NC(CO)C(=O)NNCc1ccc(O)c(O)c1O` (racemic), the remaining activity was 94.1%.
With `O=C1NC(=O)/C(=C/c2ccc3nccnc3c2)S1` the remaining activity was 110%.

Set 2 — cell line: mouse MPNST tumor cells; method: high-content nuclear imaging; measured: cell number; tested at: 10 µM; time: 12 h; notes: mean of 2 replicates; reference: plate mean; direction: higher = more cells
`O=C(Nc1ccc(S(=O)(=O)Nc2ccccc2Cl)c(Cl)c1)c1ccccn1` has a nuclei count of -0.534 z-score.
With `CN(C)CCCn1cc(C2=C(c3c[nH]c4ccccc34)C(=O)NC2=O)c2ccccc21` the nuclei count was 0.746 z-score.
With `CCN(CC)CC1CCN(c2ncc3ncnc(Nc4ccc(F)c(Cl)c4)c3n2)CC1` the nuclei count was -5.42 z-score.
`CC(CCC(=O)O)C1CCC2C3C(O)CC4CC(O)CCC4(C)C3CCC12C` (centres unmarked) gave a nuclei count of 0.445 z-score.
For `O=C(CCCCCCCn1cc(-c2cccnc2)nn1)Nc1ccccc1-c1ccccc1`, the nuclei count was -0.2 z-score.
With `COc1ccc2[nH]c(-c3ccccc3)c(CCNC(C)=O)c2c1` the nuclei count was 1.78 z-score.
`COc1ccccc1C(=O)Nc1cccc(NC(=O)c2cccc(C)c2)c1` gave a nuclei count of 1.26 z-score.
For `COc1cccc2c1C(=O)c1c(O)c3c(c(O)c1C2=O)C[C@@](O)(C(=O)CO)C[C@@H]3O[C@H]1C[C@H](N)[C@H](O)[C@H](C)O1`, the nuclei count was -5.68 z-score and -6.04 z-score.

Set 3 — read-out: enzyme activity; mode: inhibitor; tested at: 0.5 µM; reference: control
Target: Insulin-like growth factor 1 receptor (IGF1R, Homo sapiens, UniProt P08069)
Chain of UniProt P08069 (whole entry, looked up): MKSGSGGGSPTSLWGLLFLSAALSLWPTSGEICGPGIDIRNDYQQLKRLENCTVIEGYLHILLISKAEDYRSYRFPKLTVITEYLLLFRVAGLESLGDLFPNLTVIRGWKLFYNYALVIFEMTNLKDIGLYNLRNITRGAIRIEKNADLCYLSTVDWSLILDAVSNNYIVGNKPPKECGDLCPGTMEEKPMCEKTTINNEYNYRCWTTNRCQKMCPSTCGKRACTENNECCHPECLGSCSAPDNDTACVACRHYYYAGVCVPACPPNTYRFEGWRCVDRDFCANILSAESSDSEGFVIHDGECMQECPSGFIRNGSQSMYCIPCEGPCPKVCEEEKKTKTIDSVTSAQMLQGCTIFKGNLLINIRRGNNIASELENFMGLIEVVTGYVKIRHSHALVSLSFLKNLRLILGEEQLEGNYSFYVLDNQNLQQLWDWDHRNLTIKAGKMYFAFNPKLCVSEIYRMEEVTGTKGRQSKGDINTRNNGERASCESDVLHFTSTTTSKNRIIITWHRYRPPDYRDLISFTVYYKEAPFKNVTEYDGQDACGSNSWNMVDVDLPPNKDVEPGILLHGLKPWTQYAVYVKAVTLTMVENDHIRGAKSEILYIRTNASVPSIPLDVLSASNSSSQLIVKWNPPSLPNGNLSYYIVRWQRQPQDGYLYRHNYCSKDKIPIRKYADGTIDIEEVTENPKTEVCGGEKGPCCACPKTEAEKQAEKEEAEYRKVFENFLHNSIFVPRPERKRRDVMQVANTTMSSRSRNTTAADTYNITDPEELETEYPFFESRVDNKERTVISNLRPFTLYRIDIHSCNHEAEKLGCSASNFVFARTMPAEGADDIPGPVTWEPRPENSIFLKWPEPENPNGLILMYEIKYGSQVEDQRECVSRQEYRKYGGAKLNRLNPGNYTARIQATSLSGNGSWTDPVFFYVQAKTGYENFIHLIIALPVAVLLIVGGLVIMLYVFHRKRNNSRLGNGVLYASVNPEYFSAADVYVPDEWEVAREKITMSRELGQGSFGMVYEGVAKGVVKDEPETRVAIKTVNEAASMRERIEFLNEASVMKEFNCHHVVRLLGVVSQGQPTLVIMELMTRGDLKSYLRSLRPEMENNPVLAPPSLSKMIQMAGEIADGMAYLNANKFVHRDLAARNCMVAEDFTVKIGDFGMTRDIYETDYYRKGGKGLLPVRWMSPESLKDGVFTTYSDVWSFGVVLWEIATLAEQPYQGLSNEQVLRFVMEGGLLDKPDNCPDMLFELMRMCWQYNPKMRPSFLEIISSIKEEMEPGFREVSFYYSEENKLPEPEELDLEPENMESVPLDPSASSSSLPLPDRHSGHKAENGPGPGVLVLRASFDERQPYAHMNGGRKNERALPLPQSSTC
`N#CC(C#N)=C(N)/C(C#N)=C/c1ccc(O)cc1` gave a remaining activity of 90.6%.
For `NCCNc1ncc(C(N)=O)c(Nc2cccc(C(F)(F)F)c2)n1`, the remaining activity was 84.1%.
`O=C1NC(=O)C(c2cn(CCCn3ccnc3)c3ccccc23)=C1Nc1ccccc1` gave a remaining activity of 95.3%.
For `Cc1cccc(-c2[nH]c(C(C)(C)C)nc2-c2ccc3c(c2)OCO3)n1`, the remaining activity was 96.2%.
With `O=C1NC(=O)C(c2cn(CCCO)c3ncccc23)=C1c1cnccn1` the remaining activity was 98.4%.
For `C#Cc1cccc(Nc2ncnc3cc(OCCOC)c(OCCOC)cc23)c1`, the remaining activity was 91.6%.
The remaining activity of `OCC(O)CCON=C1C(c2c(O)[nH]c3ccccc23)=Nc2ccccc21` (centres unmarked) is reported as 39.1%.
For `CN(C)c1ccc(C=C2C(=O)Nc3ccccc32)cc1`, the remaining activity was 101%.
For `COc1ccc(C(=O)Nc2sc3c(c2C(N)=O)CCCC3)cc1OC`, the remaining activity was 97.7%.
The remaining activity of `CO[C@H]1C[C@@H]2CC[C@@H](C)[C@@](O)(O2)C(=O)C(=O)N2CCCC[C@H]2C(=O)O[C@H]([C@H](C)C[C@@H]2CC[C@@H](O)[C@H](OC)C2)CC(=O)[C@H](C)/C=C(\C)[C@@H](O)[C@@H](OC)C(=O)[C@H](C)C[C@H](C)/C=C/C=C/C=C/1C` is reported as 112%.
With `O=C(CCCc1ccc(-c2ccccc2F)cc1)Nc1ccc(O)cc1` the remaining activity was 106%.
`Cc1nc(-c2ccccc2)c(-c2ccncc2)o1` gave a remaining activity of 99.9%.
`O=C(Nc1cccc(Nc2cc(Nc3cccc(C(F)(F)F)c3)ncn2)c1)C1CC1` gave a remaining activity of 105%.
With `Nc1[nH]nc2nc3ccccc3nc12` the remaining activity was 97.5%.
With `Cc1ccc(NC(=O)c2ccc(CN3CCN(C)CC3)cc2)cc1Nc1nc(-c2cccnc2)cs1` the remaining activity was 101%.
With `COc1cc2nccc(Oc3ccc(NC(=S)NC(=O)c4ccccc4C)cc3)c2cc1OC` the remaining activity was 92.1%.
With `Cn1c2ccccc2c2c3c(c4c5ccccc5n(CCC#N)c4c21)CNC3=O` the remaining activity was 98.3%.
For `CCOC(=O)c1c(C)[nH]c(/C=C2\C(=O)Nc3ccccc32)c1C`, the remaining activity was 79.5%.
With `COc1cc2ncnc(Nc3ccc(Oc4ccccc4)cc3)c2cc1OC` the remaining activity was 102%.
The remaining activity of `O=S(=O)(c1cccc2cnccc12)N1CCCNCC1` is reported as 112%.

Set 4 — mode: antagonist
Target: Beta-1 adrenergic receptor (ADRB1, Homo sapiens, UniProt P08588)
Chain of UniProt P08588 (whole entry, looked up): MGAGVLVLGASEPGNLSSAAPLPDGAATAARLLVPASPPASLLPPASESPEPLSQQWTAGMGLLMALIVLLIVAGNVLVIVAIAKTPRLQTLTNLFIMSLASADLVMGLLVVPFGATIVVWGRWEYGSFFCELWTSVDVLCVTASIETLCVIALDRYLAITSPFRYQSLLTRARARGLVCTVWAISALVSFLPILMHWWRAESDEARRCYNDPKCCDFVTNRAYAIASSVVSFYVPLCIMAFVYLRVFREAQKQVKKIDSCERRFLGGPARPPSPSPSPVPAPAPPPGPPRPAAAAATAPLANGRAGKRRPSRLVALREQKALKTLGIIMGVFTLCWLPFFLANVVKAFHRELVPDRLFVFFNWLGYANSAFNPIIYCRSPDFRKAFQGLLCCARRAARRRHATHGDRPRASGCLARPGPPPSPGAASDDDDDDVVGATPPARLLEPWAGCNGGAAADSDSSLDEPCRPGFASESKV
With `CC(O)c1ccc(N2CCN(C(O)[C@H](Cc3ccc(N(C)[S+](=O)([O-])c4cccc5cnccc45)cc3)N(C)C)CC2)cc1` (some centres unmarked) the pIC50 was ≤ 4.00.
For `O=C(c1cc(O)nc2ccccc12)N1CCC(Cn2nc(-c3ccccc3)ccc2=O)CC1`, the pIC50 was ≤ 4.00.
For `COc1ccccc1OCC(O)CN1CCN(CC(=O)Nc2c(C)cccc2C)CC1` (centres unmarked), the pIC50 was ≤ 4.00.
With `Cc1csc(-c2nnc(Nc3ccc(Oc4ncccc4-c4ccnc(N)n4)cc3)c3ccccc23)c1` the pIC50 was ≤ 4.00.
The pIC50 of `Cc1noc2c(-c3cccnc3NCCCn3ccnc3)cc(-c3ccccc3)nc12` is reported as ≤ 4.00.
With `Cc1ccccc1-n1nc(-c2c(-c3ccc(F)cc3)nn3c2NC[C@@H](CO)C3)ccc1=O` the pIC50 was ≤ 4.00.
For `O=c1ccn(Cc2cnn(-c3ccccc3)n2)c2ccccc12`, the pIC50 was ≤ 4.00.
The pIC50 of `Cc1ccc2c(C(=O)N3CCC(F)(F)CC3)cc(-c3cnn(C(C)C)c3)nc2c1` is reported as ≤ 4.00.
